Experimental data from different studies.
Each numbered part is a random draw from the data of one study; scales do not carry over between parts. Substitutions count along the parent as printed.

Block 1 — method: RNAcompete; form: RNA; matrix: in vitro; concentration: 20 nM; setting: 7-mer, probes averaged, single round; relative to: mean of 7-mers; reading: higher = stronger binding
Target: PABPC1L2, full length, GST fusion (mouse, UniProt A0ABA7IW68)
Residues (chain): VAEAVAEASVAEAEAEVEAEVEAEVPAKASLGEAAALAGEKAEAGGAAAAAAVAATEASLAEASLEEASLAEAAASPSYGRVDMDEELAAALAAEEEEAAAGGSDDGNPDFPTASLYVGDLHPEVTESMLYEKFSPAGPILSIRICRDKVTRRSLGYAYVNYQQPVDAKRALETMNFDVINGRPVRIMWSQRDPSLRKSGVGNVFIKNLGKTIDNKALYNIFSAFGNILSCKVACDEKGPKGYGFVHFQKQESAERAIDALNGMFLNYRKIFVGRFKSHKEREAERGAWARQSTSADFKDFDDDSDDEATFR
| Oligonucleotide | 7-mer Z-score |
| --- | --- |
| UCUUAUC | -0.344 |
| UUGUGAU | -0.378 |
| CAAUUAA | 0.245 |
| CCCGAGG | -0.38 |
| CGGCGGA | 0.269 |
| GGUACCG | -0.277 |
| UGCUGGG | 0.00617 |
| UUGAGGG | 0.104 |
| AUCCGCA | -0.249 |
| UGAAUCC | -0.289 |
| CGAACGU | -0.32 |
| UCCGAUC | -0.376 |
| UAUCAUU | -0.277 |
| CUGCAUG | -0.139 |
| ACCGAGC | -0.117 |
| CUUGUGA | -0.378 |

Block 2 — method: universal PBM; form: double-stranded DNA, one strand shown; matrix: in vitro; concentration: 600 nM; reading: higher = stronger binding
Target: Sal-like protein 4, full length isoform A (SALL4, Homo sapiens, UniProt Q9UJQ4, residues 1-1053)
Sequence of UniProt Q9UJQ4 (whole entry, looked up): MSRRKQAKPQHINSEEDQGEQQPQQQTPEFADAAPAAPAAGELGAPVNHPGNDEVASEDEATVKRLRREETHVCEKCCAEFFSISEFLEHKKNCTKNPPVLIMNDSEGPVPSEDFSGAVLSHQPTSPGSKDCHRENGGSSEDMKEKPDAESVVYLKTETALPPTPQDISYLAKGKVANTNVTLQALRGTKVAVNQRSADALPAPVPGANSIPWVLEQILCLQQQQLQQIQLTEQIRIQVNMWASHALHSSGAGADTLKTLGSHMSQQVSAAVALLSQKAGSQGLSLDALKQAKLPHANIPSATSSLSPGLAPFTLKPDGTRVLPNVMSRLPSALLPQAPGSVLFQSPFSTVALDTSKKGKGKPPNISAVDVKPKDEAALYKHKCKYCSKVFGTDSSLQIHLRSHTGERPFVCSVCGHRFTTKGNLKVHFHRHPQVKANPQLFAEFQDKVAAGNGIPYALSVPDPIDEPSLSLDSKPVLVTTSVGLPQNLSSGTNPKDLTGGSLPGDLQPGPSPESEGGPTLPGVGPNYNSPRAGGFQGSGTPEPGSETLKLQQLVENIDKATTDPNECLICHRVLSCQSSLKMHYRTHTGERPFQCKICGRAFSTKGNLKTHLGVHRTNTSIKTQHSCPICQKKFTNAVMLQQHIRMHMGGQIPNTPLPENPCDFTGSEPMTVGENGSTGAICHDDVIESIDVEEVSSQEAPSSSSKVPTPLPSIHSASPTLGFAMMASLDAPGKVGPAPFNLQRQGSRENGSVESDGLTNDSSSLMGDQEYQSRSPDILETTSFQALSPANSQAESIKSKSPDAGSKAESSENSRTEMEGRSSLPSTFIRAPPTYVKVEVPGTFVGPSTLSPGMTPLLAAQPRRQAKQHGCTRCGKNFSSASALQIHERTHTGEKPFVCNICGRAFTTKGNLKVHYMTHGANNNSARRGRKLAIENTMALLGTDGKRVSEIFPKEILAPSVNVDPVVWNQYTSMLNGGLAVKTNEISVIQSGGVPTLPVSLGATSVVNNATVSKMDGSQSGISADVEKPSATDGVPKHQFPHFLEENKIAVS
Setting: 8-mer, flanks averaged, mean of replicates
| Oligonucleotide | E-score |
| --- | --- |
| TGTCTGAA | 0.0504 |
| CAACGATG | 0.0166 |
| GAATATTC | 0.25 |
| CCCACTAA | -0.00197 |
| AGGCGAGG | -0.248 |
| ACCCGCCT | -0.337 |
| GAGTGTCA | -0.00483 |
| CAATCAAA | 0.0906 |
| AACTGCCG | -0.132 |
| CCTCAAAC | -0.141 |
| AGCACAAT | 0.0809 |
| GCTGCCCC | -0.382 |
| AACGACAC | -0.123 |

Block 3 — target: DBP, bZIP domain (human); method: DHFR protein complementation; matrix: yeast; relative to: wild-type JUN-FOS pair; reading: higher = stronger binding
Setting: single substitutions, most at no-binding floor
Starting sequence: JUN, bZIP domain (human); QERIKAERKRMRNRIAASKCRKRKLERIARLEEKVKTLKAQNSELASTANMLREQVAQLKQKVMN; partner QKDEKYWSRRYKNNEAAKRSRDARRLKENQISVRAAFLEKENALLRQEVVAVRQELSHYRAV
| Variant | binding fitness |
| --- | --- |
| E54S | -1.46 natural log |
| A49V | -1.42 natural log |
| A46H | -1.48 natural log |
| A40D | -1.42 natural log |
| A46S | -1.42 natural log |
| S47W | -1.57 natural log |
| M51K | -1.48 natural log |
| K34E | -1.35 natural log |
| E32Q | -1.51 natural log |
| M51N | -1.37 natural log |
| E54V | -1.42 natural log |
| A57S | -1.61 natural log |
| T37G | -1.45 natural log |
| K39T | -1.52 natural log |
| L52R | -1.49 natural log |
| A49C | -1.32 natural log |
| L52G | -1.51 natural log |
| V35N | -1.56 natural log |
| K39Y | -1.54 natural log |
| Q41K | -1.5 natural log |
| K36N | -1.55 natural log |
| Q55P | -1.54 natural log |
| R30T | -1.47 natural log |
| V35F | -1.44 natural log |

Block 4 — Sequence: LLKRLQDVVSERA; effect on: peptide binding; form: peptide; reading: direction not given
| tested on | method | organism | strain | setting | enrichment score |
| --- | --- | --- | --- | --- | --- |
| human cyclin A2 | competitive growth sequencing | Saccharomyces cerevisiae | cyclin A2-Cln2 fusion strain | mutational scanning library 2 | -0.468 |
| Saccharomyces cerevisiae | yeast competitive growth sequencing |  | cyclin F-Cln2 fusion | library 2 | -1.04 |
| Saccharomyces cerevisiae | yeast competitive growth sequencing |  | cyclin E2-Cln2 fusion | library 2 | -1.04 |

Mixed results
| Molecule | tested on | test | system | setting | scale | endpoint | result |
| --- | --- | --- | --- | --- | --- | --- | --- |
| CALR (Homo sapiens, UniProt P27797) | ZKSCAN2 (Homo sapiens, UniProt Q63HK3) | cross-linking MS | cell fractions | added: DSSO |  | cross-linked residues | K55 to K323 |
| PhoQ, residues 284 288 289 292 302 303 NLCILV | PhoP, residues 12 14 15 18 19 LHHSG (Escherichia coli, UniProt P23836) | Sort-seq, measured: YFP reporter | E. coli | PhoQ-PhoP variant library, added: 10 µM Mg2+ | relative to: high Mg2+ state, higher = stronger signaling | fold induction | 7.39 |
| KTN1 (Homo sapiens, UniProt Q86UP2) | SSR3 (Homo sapiens, UniProt Q9UNL2) | cross-linking MS | cell fractions | added: DSSO |  | cross-linked residues | K46 to K8 |
| WDR36 (Homo sapiens, UniProt Q8NI36) | UTP18 (Homo sapiens, UniProt Q9Y5J1) | cross-linking MS | cell fractions | added: DSSO |  | cross-linked residues | K179 to K172 |
| CCT8 (Homo sapiens, UniProt P50990) | CNTNAP4 (Homo sapiens, UniProt Q9C0A0) | cross-linking MS | cell fractions | added: DSSO |  | cross-linked residues | Y468 to K165 |

Some of these lines once more (block 2):
| Oligonucleotide | E-score |
| --- | --- |
| GAATATTC | 0.25 |
| AACTGCCG | -0.132 |
| CAATCAAA | 0.0906 |
| AACGACAC | -0.123 |
